Experimental data collected from several papers.
Protocols differ between the studies behind these lines. Several values in a cell are separate wells, animals, samples, runs or records. ± marks the error that the study gave. In brackets after ≈: the same amount, converted by molar mass.

SMILES | cell line | test | test system | setting | scale | endpoint | value
CC(=O)NCCCC[C@@H]1NC(=O)[C@H](Cc2c[nH]c3c(C)cccc23)NC(=O)[C@H]([C@@H](C)O)NC(=O)[C@H](CC(N)=O)NC(=O)[C@@H](NC(C)=O)C(C)(C)SSC(C)(C)[C@@H](C(=O)N[C@@H](Cc2ccc(OCCN)cc2)C(=O)N[C@@H](Cc2ccc3ccccc3c2)C(=O)NC2(C(=O)N[C@@H](CCC(=O)O)C(=O)N[C@@H](CC(N)=O)C(=O)N[C@@H](Cc3cccnc3)C(=O)N(C)CC(N)=O)CCOCC2)NC1=O | human hepatocytes | inducer, refers to: CYP1A2, CYP2B6, CYP3A4 mRNA | – | 90 µM | relative to: positive control | induction | < 5%
CC(C)[C@H](NC(=O)[C@H](CCCNC(=N)N)NC(=O)[C@H](Cc1c[nH]c2ccccc12)NC(=O)[C@H](CCCNC(=N)N)NC(=O)[C@H](Cc1c[nH]c2ccccc12)NC(=O)[C@H](Cc1c[nH]c2ccccc12)NC(=O)[C@H](Cc1c[nH]c2ccccc12)NC(=O)[C@H](CCCNC(=N)N)NC(=O)[C@H](Cc1c[nH]c2ccccc12)NC(=O)[C@H](CCCNC(=N)N)NC(=O)CN)C(N)=O | mouse red blood cells | – | – | – | – | minimal haemolytic concentration | 64 µM
O[Si](CCCN1CCCCC1)(c1ccc(F)cc1)C1CCCCC1 (centres unmarked) | CHO | cell growth or viability | – | 72 h | – | IC50 | 35.3 µM
Cc1ccc(N2C[C@@H]3C[C@H]2CN3C)cc1C(=O)N[C@H](C)c1cc(-c2cnn(C)c2)nc2ccccc12 | African green monkey cells | – | – | 7.812 µM | – | viability | 94.8%
CNC(=O)C[C@H](Cc1ccccc1)NC(=O)[C@@H](Cc1ccc(Cl)cc1Cl)NC(=O)[C@H](N)Cc1ccccc1C#N | Huh-7-ACE2 | CellTiter-Glo | – | 0.781 µM, 48 h, unit not given | relative to: DMSO | viability | 0.999 and 0.95 and 1.06
CCn1ccc(-c2cc([C@@H](C)NC(=O)c3cc(N4CC5CCC(C4)N5C)ccc3C)c3ccccc3n2)n1 | Vero E6 | – | – | 250 µM | – | viability | 0% and -0.142% and -0.427%
O=C1C=CC(=O)c2ccccc21 | MRC-5 | cytotoxicity, MTT | – | 48 h, 10% FBS | – | IC50 | 36.9 ± 0.51 µM
Cc1ccc(N2CC(N(C)C)C2)cc1C(=O)N[C@H](C)c1cc(-c2cnn(C)c2)nc2ccccc12 | Vero E6 | – | – | 15.62 µM | – | viability | 91.5% and 94.5% and 92.3%
CNC(=O)C[C@H](Cc1ccc(F)cc1)NC(=O)[C@@H](Cc1ccc(Cl)cc1Cl)NC(=O)[C@H](N)Cc1ccccc1[N+](=O)[O-] | Huh-7-ACE2 | CellTiter-Glo | – | 3.125 µM, 48 h, unit not given | relative to: DMSO | viability | 0.952 and 1.02 and 0.995
O=c1n(CCNCCOS(=O)(=O)c2ccccc2)c(=O)n(S(=O)(=O)c2ccccc2)c(=O)n1S(=O)(=O)c1ccccc1 | HUVEC | cell growth or viability, MTT | – | 72 h | – | IC50 | 2.48 µg/mL
O=C(Nc1cccs1)c1cccnc1 | HCT-116 | LC-MS/MS | Nam-free DMEM 10% FBS | 100 nM | – | half-life | ~3.8 h
CC[C@H](C)[C@@H]1NC(=O)[C@H](C(C)C)NC(=O)[C@H](C(C)C)NC(=O)[C@H](CC(C)C)NC(=O)C[C@@H](C(=O)N[C@@H](Cc2c[nH]c3ccccc23)C(=O)N[C@@H](CC(N)=O)C(=O)N[C@@H](C)C(=O)N2CCC[C@H]2C(=O)NCC(=O)N[C@@H](Cc2c[nH]c3ccccc23)C(=O)N[C@@H](Cc2ccccc2)C(=O)O)NC(=O)[C@H](C)NC(=O)[C@H](CCC(N)=O)NC(=O)[C@H](C(C)C)NC1=O | HCT-8 | – | – | 10 µM | – | cytotoxicity | not toxic
Cc1ccc(OC[C@@H]2CCN2C)cc1C(=O)N[C@H](C)c1cc(-c2cnn(C)c2)nc2ccccc12 | African green monkey cells | – | – | 15.62 µM | – | viability | 90.2%
O=C(C=Cc1ccc(O)c(O)c1)OC1CC(O)(C(=O)O)CC(OC(=O)C=Cc2ccc(O)c(O)c2)C1O (centres unmarked) | Vero E6 | – | – | 6.25 µM | – | cytotoxicity | 0%
CC[C@H](C)[C@H](NC(=O)[C@H](CCCNC(=N)N)NC(=O)[C@H](Cc1c[nH]c2ccccc12)NC(=O)[C@H](CCCNC(=N)N)NC(=O)[C@H](Cc1c[nH]c2ccccc12)NC(=O)[C@H](Cc1c[nH]c2ccccc12)NC(=O)[C@H](Cc1c[nH]c2ccccc12)NC(=O)[C@H](CCCNC(=N)N)NC(=O)[C@H](Cc1c[nH]c2ccccc12)NC(=O)[C@H](CCCNC(=N)N)NC(=O)CN)C(N)=O | mouse red blood cells | – | – | – | – | minimal haemolytic concentration | 32 µM
CNC(=O)CC1CN(C(=O)c2ccc(C(F)(F)F)cn2)CCN1C(=O)c1cccnn1 (centres unmarked) | Huh-7-ACE2 | CellTiter-Glo | – | 6.25 µM, 48 h, unit not given | relative to: DMSO | viability | 1.09 and 0.941 and 0.959

SMILES | cell line | test | test system | setting | scale | endpoint | value
C#Cc1ccc(N2CCOCC2)c(/C=N/NC(=O)CCl)c1 | MCF-10A | cell growth or viability, ATP luminescence | – | 24 h | – | IC50 | 2.3 µM
CN(C)CCCNC(=O)[C@@H]1NC(=O)[C@@H]2Cc3ccc(cc3)Oc3cc4cc(c3O)-c3ccc5c(c[nH]c5c3)C[C@@H](NC(=O)C(NC(=O)CCCCCN)c3ccc(O)cc3)C(=O)N[C@H](c3ccc(O)cc3)C(=O)N[C@H]4C(=O)N[C@@H](C(=O)N2C)c2ccc(cc2)Oc2cc1ccc2O (some centres unmarked) | human red blood cells | – | – | 1 µg/mL, 1 h, 37 °C, 1% DMSO | – | hemolysis | 0.47%
NC(=O)c1cc(-c2ccsc2)ccc1OCCc1cc(F)cc(F)c1 | HepG2 | – | – | 3 (unit not given) | relative to: CC50 glucose over CC50 galactose | selectivity ratio | < 1
Cc1ccc(OC[C@@H]2CCCN2C)cc1C(=O)N[C@H](C)c1cc(-c2cnn(C)c2)nc2ccccc12 | African green monkey cells | – | – | 250 µM | – | viability | 1.51%
CC(=O)N[C@@H](CCCCN)C(=O)N1CCC[C@H]1C(=O)N[C@H](C(=O)N[C@@H](Cc1ccccc1)C(=O)N[C@@H](CCC(N)=O)C(=O)N[C@@H](Cc1ccccc1)C(=O)N[C@@H](CC(C)C)C(=O)N[C@@H](Cc1ccccc1)C(=O)N[C@@H](Cc1c[nH]cn1)C(=O)N[C@@H](CCC(=O)O)C(N)=O)C(C)C | mouse red blood cells | – | – | 2500 µM, 1 h, 37 °C | relative to: Triton X-100 | hemolysis | 0.2%
CCn1ccc(-c2cc([C@@H](C)NC(=O)c3cc(N4CCN(C)CC4)ccc3C)c3ccccc3n2)n1 | Vero E6 | – | – | 250 µM | – | viability | 0.599% and 0.449%
C[C@H](NC(=O)[C@H](CCCNC(=N)N)NC(=O)[C@H](Cc1c[nH]c2ccccc12)NC(=O)[C@H](CCCNC(=N)N)NC(=O)[C@H](Cc1c[nH]c2ccccc12)NC(=O)[C@H](Cc1c[nH]c2ccccc12)NC(=O)[C@H](Cc1c[nH]c2ccccc12)NC(=O)[C@H](CCCNC(=N)N)NC(=O)[C@H](Cc1c[nH]c2ccccc12)NC(=O)[C@@H](N)CCCNC(=N)N)C(N)=O | mouse red blood cells | – | – | – | – | minimal haemolytic concentration | 64 µM
CCCCCC1=C(NCC)C(=O)C(C/C=C(\C)CCC=C(C)C)=C(O)C1=O | human peripheral lymphocytes | – | – | 45 µg/mL, 3 h, with S9, harvest 27 h | – | cytostasis | 47%
CC(C)C[C@H](NC(=O)[C@H](CCCNC(=N)N)NC(=O)[C@@H](N)Cc1c[nH]c2ccccc12)C(=O)N[C@@H](Cc1c[nH]c2ccccc12)C(=O)N[C@@H](Cc1c[nH]c2ccccc12)C(=O)N[C@@H](Cc1c[nH]c2ccccc12)C(=O)N[C@@H](CCCNC(=N)N)C(=O)N[C@@H](CCCNC(=N)N)C(=O)N[C@@H](Cc1c[nH]c2ccccc12)C(=O)O | HEK-293T cells | CCK-8 | – | 4 h, 37 °C, 10% cell death | – | lowest cytotoxic concentration | > 256 µg/mL
O=C(O)c1cccc(CP(=O)(O)O)n1 | H4IIE | membrane integrity, CFDA-AM | – | 24 h, without 10% FBS | – | EC50 | 200 ± 30 µg/mL (≈ 921 µM)
Cc1ccc(N2CCC3(CC2)CN(C)C3)cc1C(=O)N[C@H](C)c1cc(-c2cnn(C)c2)nc2ccccc12 | Vero E6 | – | – | 250 µM | – | viability | 1.25% and 1.07% and 0.893%
N=C(N)NCCC[C@H](NC(=O)[C@H](Cc1c[nH]c2ccccc12)NC(=O)[C@H](CCCNC(=N)N)NC(=O)[C@H](Cc1c[nH]c2ccccc12)NC(=O)[C@H](Cc1c[nH]c2ccccc12)NC(=O)[C@H](Cc1c[nH]c2ccccc12)NC(=O)[C@H](CCCNC(=N)N)NC(=O)[C@H](Cc1c[nH]c2ccccc12)NC(=O)[C@@H](N)CCCNC(=N)N)C(=O)N[C@@H](Cc1c[nH]c2ccccc12)C(N)=O | mouse red blood cells | – | – | – | – | minimal haemolytic concentration | 16 µM
CNC(=O)C[C@H](Cc1ccncc1)NC(=O)[C@@H](Cc1cccc(Br)c1)NC(=O)[C@@H](N)Cc1cccc(F)c1 | Huh-7-ACE2 | CellTiter-Glo | – | 0.0977 µM, 48 h, unit not given | relative to: DMSO | viability | 0.917 and 1.06 and 1.01
CCn1ccc(-c2cc([C@@H](C)NC(=O)c3cc(OC[C@@H]4CCCN4C)ccc3C)c3ccccc3n2)n1 | Vero E6 | – | – | 125 µM | – | viability | 1.43% and 0.716% and 1.19%
CC(C)C[C@H](NC(=O)[C@H](CCCNC(=N)N)NC(=O)[C@H](Cc1c[nH]c2ccccc12)NC(=O)[C@H](CCCNC(=N)N)NC(=O)[C@H](Cc1c[nH]c2ccccc12)NC(=O)[C@H](Cc1c[nH]c2ccccc12)NC(=O)[C@H](Cc1c[nH]c2ccccc12)NC(=O)[C@H](CCCNC(=N)N)NC(=O)[C@H](Cc1c[nH]c2ccccc12)NC(=O)[C@H](CCCNC(=N)N)NC(=O)CN)C(N)=O | mouse red blood cells | – | – | – | – | minimal haemolytic concentration | 32 µM
C#CCOc1ccc(CN[C@@]2(C)C[C@H](O[C@H]3[C@H](Oc4c5cc6cc4Oc4ccc(cc4Cl)[C@@H](O)[C@@H](NC(=O)[C@@H](CC(C)C)NC)C(=O)N[C@@H](CC(N)=O)C(=O)N[C@H]6C(=O)N[C@H]4C(=O)N[C@H](C(=O)N[C@H](C(=O)O)c6cc(O)cc(O)c6-c6cc4ccc6O)[C@H](O)c4ccc(c(Cl)c4)O5)O[C@H](CO)[C@@H](O)[C@@H]3O)O[C@@H](C)[C@H]2O)cc1OC | sheep erythrocytes | – | – | 512 µg/mL, 37 °C | relative to: Triton X-100 | hemolysis | < 5%

Some of these lines once more:
SMILES | cell line | test | test system | setting | scale | endpoint | value
CC(C)[C@H](NC(=O)[C@H](CCCNC(=N)N)NC(=O)[C@H](Cc1c[nH]c2ccccc12)NC(=O)[C@H](CCCNC(=N)N)NC(=O)[C@H](Cc1c[nH]c2ccccc12)NC(=O)[C@H](Cc1c[nH]c2ccccc12)NC(=O)[C@H](Cc1c[nH]c2ccccc12)NC(=O)[C@H](CCCNC(=N)N)NC(=O)[C@H](Cc1c[nH]c2ccccc12)NC(=O)[C@H](CCCNC(=N)N)NC(=O)CN)C(N)=O | mouse red blood cells | – | – | – | – | minimal haemolytic concentration | 64 µM
O[Si](CCCN1CCCCC1)(c1ccc(F)cc1)C1CCCCC1 (centres unmarked) | CHO | cell growth or viability | – | 72 h | – | IC50 | 35.3 µM
Cc1ccc(N2C[C@@H]3C[C@H]2CN3C)cc1C(=O)N[C@H](C)c1cc(-c2cnn(C)c2)nc2ccccc12 | African green monkey cells | – | – | 7.812 µM | – | viability | 94.8%
CNC(=O)C[C@H](Cc1ccccc1)NC(=O)[C@@H](Cc1ccc(Cl)cc1Cl)NC(=O)[C@H](N)Cc1ccccc1C#N | Huh-7-ACE2 | CellTiter-Glo | – | 0.781 µM, 48 h, unit not given | relative to: DMSO | viability | 0.999 and 0.95 and 1.06
